Assay results collected from several papers.
Each numbered part is a random draw from the data of one study; scales do not carry over between parts.

Set 1
Species: mouse
Medium: microsomes or S9
Tested at: 2 µM
Time: 0.5 h
With CC(=O)Nc1ccc(N2N=C(c3ccc(O)cc3)C(C)CC2=O)cc1 (stereo not shown) the remaining compound was 55.9%.
With CC(OC(=O)c1cc2[nH]cnc2cc1F)c1nc2ncc(Br)cc2[nH]1 (stereo not shown) the remaining compound was 0.0543%.
N=C(N)Nc1ccc(OCCCCCOc2ccc(NC(=N)N)cc2)cc1 has a remaining compound of 48.4%.
CNCc1cc(N(C)C)nc(C2CCCN2S(=O)(=O)c2ccc3c(c2)CC(=O)N3C)n1 (stereo not shown) gave a remaining compound of 87.7%.
Cc1nnc2c3ccccc3nc(-c3ccccc3Cl)n12 gave a remaining compound of 0.487%.
For O=C(Cn1cc(C(=O)N2CCN(C3CCCC3)CC2)ccc1=O)Nc1nccs1, the remaining compound was 90.7%.
Brc1ccc(-c2n[nH]c(-c3ccccc3)c2-c2ncc[nH]2)cc1 gave a remaining compound of 39.9%.
With CC1(C)CNC(=O)c2nc(Cc3ccc(O)cc3)[nH]c2C1 the remaining compound was 98.5%.
For O=C(NC1CCN(Cc2ccc(OC3CCNCC3)c(Br)c2)CC1)c1cc2cc(Br)ccc2s1, the remaining compound was 68.1%.
Cc1c(C)n2c3c(=O)[nH]c(=O)n(C)c3nc2n1CCN(C)C has a remaining compound of 77.9%.
With COc1cc(=O)[nH]cc1C(=O)N[C@@H]1CCO[C@H]1c1c(C)nn(C)c1C the remaining compound was 88.2%.
c1ccc2c(c1)nc(-c1ccsc1)n2Cc1ccsc1 gave a remaining compound of 0.223%.
CCC1c2c(OC)c3c(c(OC)c2C(c2cc(OC)c4c(c2OC)OCO4)C1C)OCO3 (stereo not shown) has a remaining compound of 26.2%.
NC(=O)CN1C(=O)/C(=c2\sc3nc(=O)c(-c4ccccc4)nn3c2=O)c2ccccc21 has a remaining compound of over 99%.
c1cnc2c(C3NCCc4c3[nH]c3ccccc43)cccc2c1 (stereo not shown) gave a remaining compound of 8.89%.
CC(=O)N1CCc2[nH]cnc2C12CCN(C(=O)C(F)c1ccccc1)CC2 (stereo not shown) has a remaining compound of 79.7%.
COC(=O)c1ccc2nc(Nc3nc4ccc(F)cc4s3)sc2c1 has a remaining compound of 2.65%.

Set 2
Target: Fibroblast growth factor receptor 4 (FGFR4, Homo sapiens, UniProt P22455)
Sequence of UniProt P22455 (whole entry, looked up): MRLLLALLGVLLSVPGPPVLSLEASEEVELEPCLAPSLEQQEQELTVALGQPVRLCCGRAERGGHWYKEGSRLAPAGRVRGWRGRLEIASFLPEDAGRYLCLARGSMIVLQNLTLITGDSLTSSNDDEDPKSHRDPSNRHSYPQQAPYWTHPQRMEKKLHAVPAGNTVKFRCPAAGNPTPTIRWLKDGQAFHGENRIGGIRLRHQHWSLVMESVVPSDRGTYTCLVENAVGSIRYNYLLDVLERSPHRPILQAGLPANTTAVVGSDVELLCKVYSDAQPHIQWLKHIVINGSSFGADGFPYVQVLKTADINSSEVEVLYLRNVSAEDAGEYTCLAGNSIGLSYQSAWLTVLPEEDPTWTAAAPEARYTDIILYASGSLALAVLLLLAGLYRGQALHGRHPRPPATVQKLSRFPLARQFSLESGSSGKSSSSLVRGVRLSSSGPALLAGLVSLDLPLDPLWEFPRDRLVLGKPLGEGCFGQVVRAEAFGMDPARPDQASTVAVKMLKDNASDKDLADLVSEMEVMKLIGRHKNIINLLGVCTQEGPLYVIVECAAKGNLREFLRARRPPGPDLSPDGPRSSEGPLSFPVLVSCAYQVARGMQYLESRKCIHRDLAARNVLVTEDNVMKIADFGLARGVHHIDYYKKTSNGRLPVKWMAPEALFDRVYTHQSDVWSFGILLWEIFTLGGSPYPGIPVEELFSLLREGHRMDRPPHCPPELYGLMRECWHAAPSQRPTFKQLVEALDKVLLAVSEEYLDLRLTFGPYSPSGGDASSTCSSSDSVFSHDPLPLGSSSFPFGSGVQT
Effect on: enzyme activity
Action: inhibitor
Tested at: 0.5 µM
Baseline: control
NC(=O)c1ccc(-c2nc(-c3ccc4c(c3)OCCO4)c(-c3ccccn3)[nH]2)cc1 has a remaining activity of 91.1%.
CNc1cc2c(Nc3cccc(Br)c3)ncnc2cn1 gave a remaining activity of 93.7%.
For Clc1ccc(Nc2nnc(Cc3ccncc3)c3ccccc23)cc1, the remaining activity was 95.8%.
CC(C)N(CCC(=O)c1ccc2ccccc2c1)Cc1ccccc1 has a remaining activity of 103%.
The remaining activity of O=C(O)/C=C/c1cc(Br)c(Br)c(Br)c1Br is reported as 88.3%.
CCN(CC)CCCCN1c2ccccc2Oc2ccc(Cl)cc21 gave a remaining activity of 92.6%.
O=C(c1ccccc1)c1ccc(N2CCOCC2)cc1O gave a remaining activity of 106%.
For c1cc(-c2cnn3cc(-c4ccc(OCCN5CCCCC5)cc4)cnc23)ccn1, the remaining activity was 89%.
For N#C/C(=C(/N)SC1C=CC=CC1)c1cccc(C(O)c2ccncc2)c1 (stereo not shown), the remaining activity was 107%.
With COc1cc2c(N3CCN(C(=O)Nc4ccc(OC(C)C)cc4)CC3)ncnc2cc1OCCCN1CCCCC1 the remaining activity was 87.8%.
Nc1nc(Nc2ccc(S(N)(=O)=O)cc2)nn1C(=S)Nc1c(F)cccc1F gave a remaining activity of 32.2%.
CC(C)n1cnc2c(Nc3cccc(Cl)c3)nc(NCCO)nc21 has a remaining activity of 86.5%.
For O=C1NC(=O)/C(=C/c2ccc3c(c2)OC(F)(F)O3)S1, the remaining activity was 91%.
With CC(C)(C)c1nc2c3cc[nH]c(=O)c3c3cc(F)ccc3c2[nH]1 the remaining activity was 96.5%.
The remaining activity of NC(=O)c1cccc(-c2cc(Nc3ccc(OC(F)(F)F)cc3)ncn2)c1 is reported as 92.9%.
COc1cc2c(Nc3ccc(Br)cc3F)ncnc2cc1OCC1CCN(C)CC1 gave a remaining activity of 90%.
The remaining activity of CCCCc1c(-c2ccc(O)cc2)[nH]c2nccnc12 is reported as 91.8%.
With FC(F)(F)c1ccc(/C=C/c2nc(COc3ccc(CCCCn4ccnn4)cc3)co2)cc1 the remaining activity was 88.3%.
With C[C@@H](N)[C@H]1CC[C@H](C(=O)Nc2ccncc2)CC1 the remaining activity was 108%.
The remaining activity of N#CC(c1ccnc(NCCc2cccnc2)n1)c1nc2ccccc2s1 (stereo not shown) is reported as 101%.
With O=Nc1c(-c2c(O)[nH]c3ccccc23)[nH]c2ccccc12 the remaining activity was 91.9%.

Set 3
Cell line: Huh-7
Tested at: 10 µM
Time: 24 h
The viability of CC(=O)O[C@]1(C(C)=O)CC[C@H]2[C@@H]3C[C@H](C)C4=CC(=O)CC[C@]4(C)[C@H]3CC[C@@]21C is reported as 89.8%.
With Cc1onc(-c2ccccc2)c1C(=O)N[C@@H]1C(=O)N2[C@@H]1SC(C)(C)[C@@H]2C(=O)O the viability was 100%.
C1N2CN3CN1CN(C2)C3 has a viability of 91.6%.
With CN1CCCC(n2nc(Cc3ccc(Cl)cc3)c3ccccc3c2=O)CC1 (stereo not shown) the viability was 100%.
For Nc1ccc(S(=O)(=O)Nc2ccccn2)cc1, the viability was 102%.
For Cn1cnc2c1c(=O)[nH]c(=O)n2C, the viability was 101%.
Nc1ccc(C(=O)NCC(=O)O)cc1 has a viability of 95.7%.
For COc1cc(OC)c2c(c1)OC(c1ccccc1)CC2=O (stereo not shown), the viability was 99.3%.
With NC(=O)NC(=O)Cc1ccccc1 the viability was 98.5%.
For CN1CCc2cccc3c2[C@H]1Cc1ccc(O)c(O)c1-3, the viability was 75%.
The viability of CCN(CC)CCOCCOC(=O)C1(c2ccccc2)CCCC1 is reported as 93.9%.
COc1cc2nc(N(C)CCCNC(=O)C3CCCO3)nc(N)c2cc1OC (racemic) gave a viability of 98.1%.
The viability of CCN1CCN(C(=O)N[C@@H](C(=O)N[C@@H]2C(=O)N3[C@@H]2SC(C)(C)[C@@H]3C(=O)O)c2ccccc2)C(=O)C1=O is reported as 101%.
For CCCCC(=O)O[C@]1(C(=O)CO)CC[C@H]2[C@@H]3CCC4=CC(=O)CC[C@]4(C)[C@H]3[C@@H](O)C[C@@]21C, the viability was 96.9%.
COc1cc(CNC(=O)CCCC/C=C/C(C)C)ccc1O gave a viability of 90.3%.
With CC(=O)OCC(CCn1cnc2cnc(N)nc21)COC(C)=O the viability was 88.2%.

Other studies, line by line
Under “cells with fragmented nuclei”, Cn1cncc1[C@@](O)(COc1ccc(C#N)cc1-c1ccc(OC(F)(F)F)cc1)c1ccc(C#N)cc1 is recorded as 4.97% (HEK293T; high-content imaging; 10 µM, 24 h).
